Measurements collected from several papers.
Compare with care: the assays were run in different laboratories. Converted amounts (≈) assume the structure as drawn.

| SMILES | tested on | test | test system | conditions | scale | measurement | value |
| --- | --- | --- | --- | --- | --- | --- | --- |
| CCCCC1(CCCC)CN(c2ccccc2)c2cc(SC)c(OCC(=O)N[C@@H](C(=O)NCC(=O)O)c3ccccc3)cc2S(=O)(=O)C1 |  | measured: HDL cholesterol | human, serum | 2.5 mg once daily, day 14 |  | serum HDL-C | 52.1 mg/dL |
| COc1c(CCC[P+](c2ccccc2)(c2ccccc2)c2ccccc2)cc2c(c1OC)OCO2.[I-] | SK-MEL-28 | SRB |  |  |  | GI50 | -6.11 log M |
| CN1C(=O)C(C2C3=C(CC(C)(C)CC3=O)Oc3c(O)cccc32)C(=O)N(C)C1=O (centres unmarked) | 3T3-L1 adipocytes | qPCR, measured: HSL |  | IC20, 14 days | baseline: untreated mature adipocytes | mRNA level | increased |
| CC(C)n1ncc2c(C(=O)NCC3(C)CNC3)cc(C3CC3)nc21 | Enterovirus D68 | viral replication | RD, US/MO/14-18947 | 3 µM | baseline: untreated | plaque area | 0% |
| CC(C)N1CCC(NC2CCN(c3cccc(-c4cc5cc(F)ccc5[nH]4)c3)CC2)CC1 | SK-MEL-2 |  |  |  |  | GI50 | 1.84 µM |
| O=C1c2c(O)c(=O)ccn2N([C@@H]2c3ccccc3SCc3c2ccc(F)c3F)[C@@H]2COCCN12 | influenza A virus |  | A/WSN/33 (H1N1), BALB/c mouse, lung | subcutaneous, 2 mg/kg every 6 h, 24 h |  | lung virus titre | 2.5 log10 TCID50/mL |
| O=C(Cc1cccc(Br)c1)N[C@H]1CCOC1=O | ExpR1 (Pectobacterium carotovorum) | cellulase activity, antagonist | Pectobacterium carotovorum, single-ExpR1 strain | 5 µM, 4 h, added: OHHL 5 µM |  | inhibition | 73% |
| COc1ccc(-n2nc(C(C)=O)s/c2=N\N=C(/C)c2ccc(NC(C)=O)cc2)cc1 | MCF7 |  |  | 0.078 µM |  | toxicity | 53.9% |
| CC(C)CC(=O)OC[C@H]1O[C@@](C#N)(c2ccc3c(N)ncnn23)[C@H](O)[C@@H]1O | GABAA receptor rat hippocampus | radioligand binding |  | 20 µM, added: Ro-15-1788 |  | inhibition | -2% |
| COc1cc(CCC[P+](c2ccccc2)(c2ccccc2)c2ccccc2)c(OC)c2c1OCO2.[I-] | Hs-578T | SRB |  |  |  | GI50 | -5.76 log M |
| CC[C@@H](NC(=O)CNC(=O)[C@@H](Cc1ccccc1)NC(=O)CNC(=O)[C@H](N)CCC(N)=O)C(=O)N[C@H](CC(=O)O)C(=O)N[C@H](CCC(=O)O)C(=O)N[C@H](CCSC)C(=O)N[C@H](CC(C)C)C(=O)N[C@H](CCC(N)=O)C(=O)NCC(=O)N[C@H](Cc1ccccc1)C(=O)N[C@H](C)C(=O)N[C@@H](C(=O)N[C@H](C)C(=O)N[C@H](CC)C(=O)N[C@H](CCCCN)C(=O)N[C@H](CCSC)C(=O)NCC(=O)N[C@H](C)C(=O)N[C@H](Cc1ccc(O)cc1)C(=O)N[C@H](CCCCN)C(=O)N[C@H](C)C(=O)N[C@H](CC(=O)O)C(=O)O)C(C)C | hemagglutinin influenza A/California/07/2009 H1N1 |  |  |  |  | IC50 | 28 µM |
| CNCCc1c[nH]c2ccccc12 | NMT from Rhinella marina |  |  | 10 min, 30 °C |  | kcat | 0.0021 s⁻¹ |
| CS(=O)(=O)CCCn1c(Cn2c(=O)n(CC(F)(F)F)c3ccncc32)cc2cc(Cl)ccc21 | respiratory syncytial virus | RT-qPCR | hospitalized infants 1-24 months, nasal swab | oral, 9, 6 or 5 mg/kg daily, day 7, high dose by age cohort | baseline: baseline | LS mean viral load change | -3.96 log10 copies/mL |
| O=C(Cc1cccc(I)c1)N[C@H]1CCOC1=O | ExpR1 (Pectobacterium carotovorum) | cellulase activity, antagonist | Pectobacterium carotovorum, single-ExpR1 strain | 5 µM, 4 h, added: OHHL 5 µM |  | inhibition | 83% |
| CC[C@H](C)[C@H](NC(=O)[C@H](C)NC(=O)[C@H](CCCCN)NC(=O)[C@H](CC(C)C)NC(=O)[C@H](C)NC(=O)[C@@H](NC(=O)[C@H](Cc1c[nH]cn1)NC(=O)[C@H](CC(C)C)NC(=O)[C@@H](NC(=O)[C@@H](NC(=O)[C@H](CCCCN)NC(=O)[C@H](C)NC(=O)[C@H](C)NC(=O)[C@H](CO)NC(=O)[C@H](CCCCN)NC(=O)[C@H](Cc1ccccc1)NC(=O)[C@@H](NC(=O)[C@H](CCCCN)NC(=O)[C@H](CC(C)C)NC(=O)[C@H](Cc1ccccc1)NC(=O)[C@H](CO)NC(=O)[C@H](CCCCN)NC(=O)[C@H](Cc1c[nH]c2ccccc12)NC(=O)[C@H](CCCCN)NC(C)=O)[C@@H](C)O)[C@@H](C)O)C(C)C)[C@@H](C)O)C(=O)N[C@@H](CO)C(=O)N[C@@H](CO)C(N)=O | Acinetobacter baumannii |  | IPM-R | 87 strains |  | MIC geometric mean | 3.47 µg/mL (≈ 1.18 µM) |
| CC[C@H](C)[C@@H]1NC(=O)[C@@H]2CCCN2C(=O)[C@H](CC(C)C)NC(=O)[C@H](CC(C)C)NC(=O)CNC(=O)[C@@H](NC(=O)[C@@H](NC(=O)[C@H](CC(=O)O)NC(=O)CNC(=O)[C@@H](NC(=O)[C@H](C)NC(=O)CNC(=O)[C@H](CCCCN)NC(=O)[C@H](CC(C)C)NC(=O)[C@H](CC(C)C)NC(=O)[C@H](CCCCN)NC(=O)CNC(=O)[C@@H](NC(=O)[C@@H](N)CC(C)C)C(C)C)C(C)C)C(C)C)CSSC[C@@H](C(=O)O)NC1=O |  | RNA-seq, measured: Crispld2 | mouse, traumatic brain injury model, frontal cortex and hippocampus | dose not given | baseline: TBI alone | log2 fold change | -1.99 |
| COc1ccc2ccc3oc([N+](=O)[O-])cc3c2c1Br | Mycobacterium bovis BCG |  | 1173 P2 |  |  | MIC90 | 0.25 µg/mL (≈ 0.776 µM) |
| C#CC[C@@H](N)C(=O)N[C@H](CO)C(=O)N[C@@H](C(=O)N[C@H](CO)C(=O)N[C@H](CCC(=O)O)C(=O)N[C@@H](C(=O)N[C@H](CCC(N)=O)C(=O)N[C@H](CC(C)C)C(=O)N[C@H](CCSC)C(=O)N[C@H](Cc1c[nH]cn1)C(=O)N[C@H](CC(N)=O)C(=O)N[C@H](CC(C)C)C(=O)NCC(=O)N[C@H](CCCCN)C(=O)N[C@H](Cc1c[nH]cn1)C(=O)N[C@H](CC(C)C)C(=O)NCC(=O)N[C@H](CO)C(=O)N[C@H](CCSC)C(=O)N[C@H](CCC(=O)O)C(=O)N[C@H](CCCNC(=N)N)C(=O)N[C@@H](C(=O)N[C@H](Cc1ccc(O)cc1)C(=O)N[C@H](Cc1ccccc1)C(=O)N[C@H](CC(C)C)C(=O)N[C@H](CCCNC(=N)N)C(=O)N[C@H](Cc1ccccc1)C(=O)N[C@H](CCCCN)C(=O)N[C@H](CC(C)C)C(=O)N[C@H](CCC(N)=O)C(=O)N[C@H](CC(C)C)C(=O)N[C@@H](C(N)=O)[C@H](C)CC)C(C)C)[C@H](C)CC)C(C)C | hemagglutinin influenza A/California/07/2009 H1N1 |  |  |  |  | IC50 | 120 µM |
| COCCC1=C(C(=O)OC)C(c2ccc(Cl)cc2)C2=C(CC(c3cc(OC)c(OC)c(OC)c3)CC2=O)N1 (single isomer, unassigned) | J774.A1 | cytotoxicity |  |  |  | EC50 | > 20 µM |
| C[C@H](C(=O)N[C@H]1COc2ccccc2[C@@H]1S(C)(=O)=O)c1ccc(F)cc1 | NMDA receptor, rat, Phencyclidine site | binding |  | 10 µM, Eurofins selectivity panel |  | inhibition | 0% |
